Results of several laboratories.
Compare with care: the assays were run in different laboratories. ± marks the error that the study gave.

Structure (SMILES)	cell line	assay	setting	IC50 [µM]
O=C1C=CC(=O)N1CCCCCCCCOCc1cn(CCCCCCCCN2C(=O)C=CC2=O)nn1	L929	cell growth or viability	72 h	6
CC(=O)O[C@H]1OC[C@@H]2C=C([C@]3(C)CCCC(C)(C)C3)CC[C@H]12	human T-lymphocyte	cell growth or viability, MTT	48 h	4
COC(=O)N1c2ccc3c(nc(Cc4ccccc4)n3[C@@H]3CCC[C@@H](C(=O)O)C3)c2CC[C@@H]1C	DU-4475	cell growth or viability, ATP luminescence	10 days	0.04
C=CS(=O)(=O)NCCCCOCc1cn(CCCCNS(=O)(=O)C=C)n[n+]1C	L929	viability, alamarBlue	3 days	> 50
O=C1C(Cl)=C(Cl)C(=O)c2c1cccc2[N+](=O)[O-]	HuCC-A1	cell growth or viability, MTT		112
C=CC(=O)NCCCCOCc1cn(CCCCNC(=O)C=C)nn1	L929	viability, alamarBlue	3 days	> 50
Cn1ncc(-c2ccc3c(=O)[nH]nc(CN)c3c2)c1-c1c(F)c(Cl)cc(OC2CC2)c1C#N	WM-266-4	cell viability, inhibitor, CellTiter-Glo	120 h	1.92
C=CC(=O)Nc1ccc(F)c(-c2ncnc3[nH]cc(C(=O)OCC)c23)c1	mouse naive CD4 T cells	IL-2 production, ELISA	ITK/RLK dependent, with: TCR stimulation	1.12 ± 0.5
CC(C)c1ccc(N(C)c2ccc3c(c2)OCC[C@H]3CNc2cnccc2C(=O)O)cc1	HCC38	cell growth or viability, ATP luminescence	7 days	≥ 10
CCOc1cncc(-c2ccc(NC(=O)C3(c4ccnc(NS(=O)(=O)C5CC5)n4)CCOCC3)nc2)n1	KM-H2	cell growth or viability, ATP luminescence	72 h	0.051
CC(C)c1cccc(C(C)C)c1N1C(=O)C2=Nc3ccccc3CN2C1=S	CEM/ADR5000 (P-gp overexpressing, multidrug resistant)	cell viability, resazurin	72 h	19.1 ± 7.1
C=CC(=O)N1CCCC(n2c(=O)c3ncccc3n(Cc3ccc(Oc4ccccc4)cc3)c2=O)C1 (stereo not shown)	KM-H2	cell growth or viability, MTT	72 h	2.5
O=C1C2=Nc3ccccc3CN2C(=S)N1[C@H]1CCCc2ccccc21	CEM/ADR5000 (P-gp overexpressing, multidrug resistant)	cell viability, resazurin	72 h	12.9 ± 3.56
CNS(=O)(=O)Nc1nccc(Cc2c(C)c3ccc(Oc4ncccc4F)cc3oc2=O)c1F	HCC1954	cell viability	7 days	0.757
C=CS(=O)(=O)NCCCCOCc1cn(CCCCNS(=O)(=O)C=C)nn1	L929	viability, alamarBlue	3 days	> 50
C[C@H](c1ccccc1)N1C(=O)C2=Nc3cc(Cl)ccc3CN2C1=S	CEM/ADR5000 (P-gp overexpressing, multidrug resistant)	cell viability, resazurin	72 h	0.156 ± 0.013

Some of these lines once more:
Structure (SMILES)	cell line	assay	setting	IC50 [µM]
O=C1C(Cl)=C(Cl)C(=O)c2c1cccc2[N+](=O)[O-]	HuCC-A1	cell growth or viability, MTT		112
